Assay results gathered from unrelated publications.
Each numbered part is a random draw from the data of one study; scales do not carry over between parts. Several values in a cell are separate wells, animals, samples, runs or records.
Chain of UniProt O75116 (whole entry, looked up): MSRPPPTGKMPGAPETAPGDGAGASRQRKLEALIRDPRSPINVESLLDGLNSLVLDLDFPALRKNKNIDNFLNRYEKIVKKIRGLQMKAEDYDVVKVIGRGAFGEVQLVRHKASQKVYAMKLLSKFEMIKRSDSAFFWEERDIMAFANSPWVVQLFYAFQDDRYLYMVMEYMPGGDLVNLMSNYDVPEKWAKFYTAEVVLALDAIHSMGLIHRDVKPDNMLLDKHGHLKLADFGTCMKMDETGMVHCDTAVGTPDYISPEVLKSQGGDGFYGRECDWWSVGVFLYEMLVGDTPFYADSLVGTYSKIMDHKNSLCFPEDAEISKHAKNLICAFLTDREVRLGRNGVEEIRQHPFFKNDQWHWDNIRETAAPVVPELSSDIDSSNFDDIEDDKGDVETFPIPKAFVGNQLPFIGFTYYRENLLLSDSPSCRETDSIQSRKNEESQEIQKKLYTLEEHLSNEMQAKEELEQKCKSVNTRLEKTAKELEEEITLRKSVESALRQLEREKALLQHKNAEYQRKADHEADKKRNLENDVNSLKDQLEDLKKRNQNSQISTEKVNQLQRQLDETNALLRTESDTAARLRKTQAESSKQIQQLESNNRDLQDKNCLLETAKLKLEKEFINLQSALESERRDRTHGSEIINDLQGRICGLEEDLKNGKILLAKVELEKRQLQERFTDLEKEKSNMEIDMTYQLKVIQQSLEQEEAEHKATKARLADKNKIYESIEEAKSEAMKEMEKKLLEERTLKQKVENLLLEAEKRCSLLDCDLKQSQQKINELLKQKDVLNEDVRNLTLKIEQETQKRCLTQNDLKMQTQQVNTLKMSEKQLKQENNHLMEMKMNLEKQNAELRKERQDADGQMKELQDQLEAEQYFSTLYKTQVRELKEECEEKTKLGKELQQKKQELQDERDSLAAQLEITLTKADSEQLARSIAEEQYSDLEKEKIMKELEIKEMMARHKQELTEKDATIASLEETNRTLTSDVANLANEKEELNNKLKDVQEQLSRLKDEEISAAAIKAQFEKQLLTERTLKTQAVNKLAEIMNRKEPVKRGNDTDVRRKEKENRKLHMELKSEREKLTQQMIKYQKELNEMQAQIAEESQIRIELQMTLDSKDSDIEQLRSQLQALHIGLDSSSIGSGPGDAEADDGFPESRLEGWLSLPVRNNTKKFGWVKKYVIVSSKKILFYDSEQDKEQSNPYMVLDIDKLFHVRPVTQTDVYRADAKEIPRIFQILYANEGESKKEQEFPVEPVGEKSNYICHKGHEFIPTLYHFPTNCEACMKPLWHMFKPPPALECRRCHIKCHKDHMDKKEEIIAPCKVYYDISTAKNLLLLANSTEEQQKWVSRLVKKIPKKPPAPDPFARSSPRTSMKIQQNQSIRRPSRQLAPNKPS
Chain of UniProt Q9UQ88 (whole entry, looked up): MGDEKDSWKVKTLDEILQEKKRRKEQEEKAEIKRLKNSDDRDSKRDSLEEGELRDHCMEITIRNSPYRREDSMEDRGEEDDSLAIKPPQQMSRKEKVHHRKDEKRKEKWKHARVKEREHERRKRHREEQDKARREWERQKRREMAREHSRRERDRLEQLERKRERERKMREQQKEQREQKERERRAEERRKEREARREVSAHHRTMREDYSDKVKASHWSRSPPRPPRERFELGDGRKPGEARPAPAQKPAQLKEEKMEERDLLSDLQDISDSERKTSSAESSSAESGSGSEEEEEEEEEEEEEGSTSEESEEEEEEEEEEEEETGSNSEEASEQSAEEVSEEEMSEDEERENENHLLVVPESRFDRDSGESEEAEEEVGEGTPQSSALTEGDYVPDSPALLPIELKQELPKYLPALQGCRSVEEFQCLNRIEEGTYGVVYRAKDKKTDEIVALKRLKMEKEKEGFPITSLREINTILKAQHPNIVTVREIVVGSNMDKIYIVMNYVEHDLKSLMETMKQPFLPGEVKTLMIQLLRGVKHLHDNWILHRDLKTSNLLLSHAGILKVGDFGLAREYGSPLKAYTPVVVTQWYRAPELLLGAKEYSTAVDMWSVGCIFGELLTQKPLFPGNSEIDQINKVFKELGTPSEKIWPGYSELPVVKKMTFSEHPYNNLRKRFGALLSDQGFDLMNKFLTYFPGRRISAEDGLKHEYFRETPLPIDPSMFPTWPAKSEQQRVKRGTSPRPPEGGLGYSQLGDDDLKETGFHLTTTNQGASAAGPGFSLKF
Chain of UniProt Q9UBE8 (whole entry, looked up): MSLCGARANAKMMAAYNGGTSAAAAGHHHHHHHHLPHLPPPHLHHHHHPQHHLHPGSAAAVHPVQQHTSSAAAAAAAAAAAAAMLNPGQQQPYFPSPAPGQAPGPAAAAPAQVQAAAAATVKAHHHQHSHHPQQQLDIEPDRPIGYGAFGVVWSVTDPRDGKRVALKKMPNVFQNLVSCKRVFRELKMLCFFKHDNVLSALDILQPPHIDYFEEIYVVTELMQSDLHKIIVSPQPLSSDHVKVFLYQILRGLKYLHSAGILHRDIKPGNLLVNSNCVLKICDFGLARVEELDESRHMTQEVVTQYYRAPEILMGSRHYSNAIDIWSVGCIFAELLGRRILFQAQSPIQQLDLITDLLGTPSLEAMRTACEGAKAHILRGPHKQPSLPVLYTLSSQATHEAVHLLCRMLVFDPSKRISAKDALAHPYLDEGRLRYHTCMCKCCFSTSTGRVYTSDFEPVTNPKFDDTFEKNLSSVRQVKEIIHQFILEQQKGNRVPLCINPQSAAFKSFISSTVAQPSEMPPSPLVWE
Chain of UniProt Q96J92 (whole entry, looked up): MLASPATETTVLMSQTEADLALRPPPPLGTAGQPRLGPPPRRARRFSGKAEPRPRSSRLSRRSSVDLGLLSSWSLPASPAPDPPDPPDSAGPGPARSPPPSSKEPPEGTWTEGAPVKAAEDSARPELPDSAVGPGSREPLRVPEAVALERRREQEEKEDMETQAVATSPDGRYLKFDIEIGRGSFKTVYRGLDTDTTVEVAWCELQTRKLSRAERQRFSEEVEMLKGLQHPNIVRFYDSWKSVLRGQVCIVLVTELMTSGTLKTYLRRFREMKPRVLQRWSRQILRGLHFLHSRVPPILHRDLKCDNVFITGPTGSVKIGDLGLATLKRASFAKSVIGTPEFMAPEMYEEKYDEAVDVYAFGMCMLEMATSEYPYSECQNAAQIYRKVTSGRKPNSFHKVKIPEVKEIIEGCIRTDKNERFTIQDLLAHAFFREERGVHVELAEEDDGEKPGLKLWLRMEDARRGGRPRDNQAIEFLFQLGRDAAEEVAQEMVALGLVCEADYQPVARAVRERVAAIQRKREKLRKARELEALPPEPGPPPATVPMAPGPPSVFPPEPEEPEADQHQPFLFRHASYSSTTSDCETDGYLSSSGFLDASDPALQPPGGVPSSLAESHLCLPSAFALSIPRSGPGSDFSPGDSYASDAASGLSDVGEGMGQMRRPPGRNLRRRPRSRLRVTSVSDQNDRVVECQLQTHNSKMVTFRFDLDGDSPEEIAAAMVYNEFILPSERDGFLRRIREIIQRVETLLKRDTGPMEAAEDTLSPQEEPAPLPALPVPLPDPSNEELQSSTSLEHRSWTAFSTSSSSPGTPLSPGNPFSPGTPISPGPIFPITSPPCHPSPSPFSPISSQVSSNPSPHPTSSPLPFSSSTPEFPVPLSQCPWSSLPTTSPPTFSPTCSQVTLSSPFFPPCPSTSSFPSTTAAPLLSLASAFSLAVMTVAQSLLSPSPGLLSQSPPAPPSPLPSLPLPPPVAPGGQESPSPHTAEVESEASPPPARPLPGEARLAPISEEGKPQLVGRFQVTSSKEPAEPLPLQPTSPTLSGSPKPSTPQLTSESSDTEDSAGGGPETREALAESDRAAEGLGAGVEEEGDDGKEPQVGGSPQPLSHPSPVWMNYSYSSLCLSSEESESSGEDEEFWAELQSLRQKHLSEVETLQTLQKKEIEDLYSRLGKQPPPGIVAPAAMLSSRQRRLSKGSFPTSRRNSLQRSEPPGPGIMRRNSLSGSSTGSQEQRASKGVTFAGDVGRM
Chain of UniProt P07948 (whole entry, looked up): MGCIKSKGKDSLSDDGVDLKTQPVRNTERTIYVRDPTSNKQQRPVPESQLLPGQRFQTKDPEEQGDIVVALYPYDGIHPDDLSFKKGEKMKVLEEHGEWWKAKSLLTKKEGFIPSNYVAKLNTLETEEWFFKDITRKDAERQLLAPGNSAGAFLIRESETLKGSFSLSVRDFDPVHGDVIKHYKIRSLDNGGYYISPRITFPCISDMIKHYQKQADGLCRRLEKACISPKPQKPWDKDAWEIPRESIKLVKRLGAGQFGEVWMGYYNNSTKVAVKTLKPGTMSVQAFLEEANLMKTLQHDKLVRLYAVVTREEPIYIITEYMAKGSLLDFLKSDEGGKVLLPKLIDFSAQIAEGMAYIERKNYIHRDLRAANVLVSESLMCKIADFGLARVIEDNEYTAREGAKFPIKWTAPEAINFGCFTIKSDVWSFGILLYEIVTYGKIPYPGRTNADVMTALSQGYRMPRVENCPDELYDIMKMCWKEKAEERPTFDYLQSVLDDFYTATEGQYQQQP
Chain of UniProt Q96Q40 (whole entry, looked up): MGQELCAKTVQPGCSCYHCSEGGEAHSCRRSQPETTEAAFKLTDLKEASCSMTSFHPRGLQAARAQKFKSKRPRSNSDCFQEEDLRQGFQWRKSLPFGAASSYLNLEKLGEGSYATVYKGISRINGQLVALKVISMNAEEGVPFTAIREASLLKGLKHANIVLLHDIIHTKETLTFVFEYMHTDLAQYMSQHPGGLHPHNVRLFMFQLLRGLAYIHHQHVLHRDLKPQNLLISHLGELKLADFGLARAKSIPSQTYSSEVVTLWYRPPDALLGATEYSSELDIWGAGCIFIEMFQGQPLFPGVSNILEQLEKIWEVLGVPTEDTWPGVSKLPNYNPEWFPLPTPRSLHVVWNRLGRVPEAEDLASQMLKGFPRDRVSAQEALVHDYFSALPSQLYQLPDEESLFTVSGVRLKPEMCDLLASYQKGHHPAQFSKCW

Set 1
SMILES: COc1cc(-c2cn(C3CCc4ccccc4N(CC(F)(F)F)C3=O)nn2)ccc1-n1ccc(C)n1 (stereo not drawn)
Concentration: 1 µM
target | observed | technique | remaining binding
Serine/threonine-protein kinase SIK1 (SIK1, Homo sapiens, UniProt P57059) |  | competition binding | 100%
Tyrosine-protein kinase Lyn (LYN, Homo sapiens, UniProt P07948) | cell-free assay | competition with immobilised ligand | 100%
Epidermal growth factor receptor (EGFR, Homo sapiens, UniProt P00533, L858R/T790M) | cell-free assay | competition with immobilised ligand | 65%
Tyrosine-protein kinase JAK2 (JAK2, Homo sapiens, UniProt O60674) | binding | competition with immobilised ligand | 34%
Homeodomain-interacting protein kinase 3 (HIPK3, Homo sapiens, UniProt Q9H422) | cell-free assay | competition with immobilised ligand | 83%
Macrophage colony-stimulating factor 1 receptor, autoinhibited (CSF1R, Homo sapiens, UniProt P07333) | cell-free assay | competition with immobilised ligand | 93%
Phosphatidylinositol 3-kinase catalytic subunit type 3 (PIK3C3, Homo sapiens, UniProt Q8NEB9) | cell-free assay | competition with immobilised ligand | 100%
Cyclin-dependent kinase 2 (CDK2, Homo sapiens, UniProt P24941) | cell-free assay | competition with immobilised ligand | 100%
Dual serine/threonine and tyrosine protein kinase (DSTYK, Homo sapiens, UniProt Q6XUX3) | cell-free assay | competition with immobilised ligand | 100%
Receptor-type tyrosine-protein kinase FLT3 (FLT3, Homo sapiens, UniProt P36888, D835V) | cell-free assay | competition with immobilised ligand | 80%
Cyclin-dependent kinase 11A (CDK11A, Homo sapiens, UniProt Q9UQ88) | binding | competition with immobilised ligand | 97%
Rho-associated protein kinase 2 (ROCK2, Homo sapiens, UniProt O75116) | cell-free assay | competition with immobilised ligand | 100%
Cyclin-G-associated kinase (GAK, Homo sapiens, UniProt O14976) | cell-free assay | competition with immobilised ligand | 92%
Serine/threonine-protein kinase WNK4 (WNK4, Homo sapiens, UniProt Q96J92) | cell-free assay | competition with immobilised ligand | 100%
Activin receptor type-2A (ACVR2A, Homo sapiens, UniProt P27037) | cell-free assay | competition with immobilised ligand | 100%
Serine/threonine-protein kinase NLK (NLK, Homo sapiens, UniProt Q9UBE8) | binding | competition with immobilised ligand | 100%
Cyclin-dependent kinase 15 (CDK15, Homo sapiens, UniProt Q96Q40) | cell-free assay | competition with immobilised ligand | 100%
Interferon-induced, double-stranded RNA-activated protein kinase (EIF2AK2, Homo sapiens, UniProt P19525) | cell-free assay | competition with immobilised ligand | 87%
MAP kinase-activated protein kinase 5 (MAPKAPK5, Homo sapiens, UniProt Q8IW41) | cell-free assay | competition with immobilised ligand | 91%

Set 2
Target: Rho-associated protein kinase 2 (ROCK2, Homo sapiens, UniProt O75116)
Observed: enzyme activity
Mode: inhibitor
Concentration: 0.5 µM
Reference: control
SMILES | remaining activity [%]
N#Cc1c(NC(=O)c2cccc3ccccc23)sc2c1CCCC2 | 98
COc1cc2ncnc(Nc3ccc(O)c(Br)c3)c2cc1OC | 89.9
N#C/C(=C\c1ccc(O)c(O)c1)C(=O)NCc1ccccc1 | 94
Cc1nc2cc3nc(-c4cccs4)cnc3cc2n1C | 107
Nc1cccc(-c2cc3c(Oc4cccc(O)c4)ncnc3[nH]2)c1 | 94.5
Cn1nc2c3c(cccc31)C(=O)c1ccccc1-2 | 92.3
c1ccc(-c2[nH]ncc2-c2ccnc3ccccc23)nc1 | 100
CCOc1nc(NC(=O)Cc2cc(OC)ccc2OC)cc(N)c1C#N | 93.1
CN(C)C[C@H]1CCn2c(c(C3=C(c4cn(C)c5ccccc45)C(=O)NC3=O)c3ccccc32)C1 | 98.9
O=C(Nc1cccc(Nc2nccc(Nc3cccc(C(F)(F)F)c3)n2)c1)C1CC1 | 105
CCN(CC)CCNC(=O)c1c(C)[nH]c(/C=C2\C(=O)Nc3ccc(Cl)cc32)c1C | 73.5
COc1cc2c(cc1OC)-c1[nH]nc(Nc3cccc(F)c3)c1C2 | 95.2
Cc1cn(-c2cc(NC(=O)c3ccc(C)c(Nc4nccc(-c5cccnc5)n4)c3)cc(C(F)(F)F)c2)cn1 | 97.1
CN([C@@H](Cc1ccc(OS(=O)(=O)c2cccc3cnccc23)cc1)C(=O)N1CCN(c2ccccc2)CC1)S(=O)(=O)c1cccc2cnccc12 | 105
Cc1cc2ncc(-c3ccccc3)nc2cc1C | 88.1
O=C1C(Cl)=C(N2C(=O)CCC2=O)C(=O)c2ccccc21 | 91.5
C[C@@H]1CCN(C(=O)CC#N)C[C@@H]1N(C)c1ncnc2[nH]ccc12 | 69.9
COc1cc2ncnc(Nc3cccc(Cl)c3)c2cc1OC | 92.6
CCN(CC)C(=O)c1ccc(Nc2nc(OCC3CCCCC3)c3[nH]cnc3n2)cc1 | 39.8
c1ccc(-c2cnc(Nc3ccc(OCCN4CCCC4)cc3)s2)cc1 | 91.7
Ic1cccc(CSc2nnc(-c3ccncc3)o2)c1 | 89
O=C1c2ccccc2-c2n[nH]c3cccc1c23 | 89.4
O=c1cc(-c2cccc3c2Sc2ccccc2S3)oc(N2CCOCC2)c1 | 109

Set 3
SMILES: CCOc1ccc(Nc2c3c(nc4ccccc24)CCC3)cc1
cell line | technique | concentration | time | setting | cytotoxicity
PMA-differentiated THP-1 macrophages |  | 0.04 µM | 64 h |  | 4% and 1%
HEK293 | resazurin | 0.0332 µM |  | 10% serum | -1% and -2%
J774.1 | resazurin | 6.66 µM | 64 h |  | 40% and 24%
HEK293 | resazurin | 66.66 µM |  | 10% serum | 100%
J774.1 | resazurin | 0.0066 µM | 64 h |  | 0% and 3%
RAW264.7 | resazurin | 6.66 µM | 64 h |  | 7% and 13%
RAW264.7 | resazurin | 0.0332 µM |  |  | -4% and -5%

Further values, each from its own experiment
Observed: binding
Technique: NanoBRET
Cell line: HEK293 (live)
Reading: lower = stronger binding
Compound | target | concentration | time | target engagement
Cn1cnc(Cn2ccc3ccc(CNCc4[nH]c5ccccc5c4[C@H]4NC(=O)c5ccc(O)cc54)cc32)c1 | GTPase KRas (KRAS, Homo sapiens, UniProt P01116, G12C) | 0.3468 µM | 2 h | 11.9% and 13.1% and 13.2% and 14.1%
C=C(F)C(=O)N1CCN(c2nc(OC[C@@H]3CCCN3C)nc3c2CCN(c2cccc4cccc(Cl)c24)C3)C[C@@H]1CC#N | GTPase HRas (HRAS, Homo sapiens, UniProt P01112, G12V) | 1.301 µM |  | 144% and 155% and 137% and 149%

Repeated from above (set 3):
cell line | technique | concentration | time | setting | cytotoxicity
PMA-differentiated THP-1 macrophages |  | 0.04 µM | 64 h |  | 4% and 1%
HEK293 | resazurin | 0.0332 µM |  | 10% serum | -1% and -2%
J774.1 | resazurin | 6.66 µM | 64 h |  | 40% and 24%
HEK293 | resazurin | 66.66 µM |  | 10% serum | 100%
J774.1 | resazurin | 0.0066 µM | 64 h |  | 0% and 3%
RAW264.7 | resazurin | 6.66 µM | 64 h |  | 7% and 13%
RAW264.7 | resazurin | 0.0332 µM |  |  | -4% and -5%
